Experimental data of several laboratories.
Each numbered part is a random draw from the data of one study; scales do not carry over between parts. Positions count from the first letter of the parent shown.

Series 1 — method: protein-binding microarray; molecule type: double-stranded DNA, one strand shown; matrix: in vitro; concentration: 2540 nM top; notes: 60-bp whole probe; together with: salmon DNA 0.4 mg/ml; reference: random background probes; direction: higher = stronger binding; constant ends, left off below: GCCTAGCAC … GTCTTGATTCGCTTGACGCTGCTG
Target: Interferon regulatory factor 3, full length, phosphomimetic (IRF3, Homo sapiens, UniProt Q14653, residues 1-427, S386D/S396D/S398D/S402D/T404D/S405D)
Construct (chain): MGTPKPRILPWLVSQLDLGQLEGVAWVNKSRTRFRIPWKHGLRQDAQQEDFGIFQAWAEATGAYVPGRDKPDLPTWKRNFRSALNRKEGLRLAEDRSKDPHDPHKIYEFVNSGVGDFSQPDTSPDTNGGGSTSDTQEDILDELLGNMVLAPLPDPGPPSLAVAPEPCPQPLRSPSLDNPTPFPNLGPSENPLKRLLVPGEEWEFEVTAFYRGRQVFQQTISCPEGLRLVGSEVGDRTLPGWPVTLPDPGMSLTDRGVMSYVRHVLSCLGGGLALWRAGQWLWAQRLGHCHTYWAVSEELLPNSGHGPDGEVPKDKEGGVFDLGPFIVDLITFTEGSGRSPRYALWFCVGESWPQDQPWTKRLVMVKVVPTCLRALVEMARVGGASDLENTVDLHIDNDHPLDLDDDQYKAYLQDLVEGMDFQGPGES
Under “fitted relative affinity”, `CCTAGCCTCCCAGCCCAGCAGTGCTAG` is recorded as -0.366 z-score.
`TTAGGACTGCTTATCTTTTAGTGCTAG`: “fitted relative affinity” -0.22 z-score.
`TTAGGGCTGGGGTTTCGGTTAGTGCTA` — result for “fitted relative affinity”: 2.03 z-score.
`GGATGAAGCGCTTCTCGAGTGGTGCTA` — result for “fitted relative affinity”: -0.602 z-score.
For `TCAGCTACACATCTCACACTGTGCTAG`, “fitted relative affinity” read 0.496 z-score.
`TTAGAACTAAGTATCGATTAGTGCTAG` — result for “fitted relative affinity”: 0.425 z-score.
Under “fitted relative affinity”, `GACGAACGGGGGACTGGAGACGTGCTA` is recorded as -0.287 z-score.
For `TTGACTCTTTCTGTCAGTTTGTGCTAG`, “fitted relative affinity” read 0.98 z-score.
`TTAGGTTTCGCTTCCGGTTAGTGCTAG` — result for “fitted relative affinity”: 7.4 z-score.
Under “fitted relative affinity”, `CAGAGCATGGATCTGGGAACGTGCTAG` is recorded as -0.639 z-score.
For `TGAAGTTTTAATAACACAGAGTGCTAG`, “fitted relative affinity” read -0.0412 z-score.
`GACGGACTGGGGTTACGGGACGTGCTA`: “fitted relative affinity” -0.712 z-score.
`GACGGACTGGGGTATCGGCACGTGCTA`: “fitted relative affinity” -0.893 z-score.
`TTAGGTCTCAGTATCGATTAGTGCTAG` — result for “fitted relative affinity”: 1.45 z-score.
`GACGATCTCAGTTTCAAGACGTGCTAG`: “fitted relative affinity” 1.46 z-score.
`TTAGATTTCAGCTCCGATTAGTGCTAG`: “fitted relative affinity” 0.855 z-score.

Series 2 — method: RNA Bind-n-Seq; molecule type: RNA; matrix: in vitro; concentration: 365 nM; reference: no-protein control; direction: higher = stronger binding
Target: RNA binding protein fox-1 homolog 2, RRM domain, GST-SBP tag (RBFOX2, Homo sapiens, UniProt O43251-10, residues 100-194)
Notes: natural RNA segment, single round, ends assumed
Residues (chain): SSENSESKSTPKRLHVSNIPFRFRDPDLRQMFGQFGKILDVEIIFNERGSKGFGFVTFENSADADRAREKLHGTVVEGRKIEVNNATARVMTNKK
Under “RBNS enrichment (R)”, `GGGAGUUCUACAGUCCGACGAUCAAGAGUUUAGUAAACGAAGAAUUAAACUGCACUGUUGAUCGGUGCUUUGUGUAAAUACAUCUUUAACAUUUGGGUGGAGAGGGGCCUUAAGAAGGACAGUUCAUUGUAGGUGGAAUUCUCGGGUGCCAA` is recorded as 0.653.
`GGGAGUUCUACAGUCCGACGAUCUCCAUCCCACCUUUUCCUUCCACUGCCCAAUCACAGCCUCUAGCCUUUAUUUGACCAGUUAAAAUGGGCAAAAGGUUCACAUGCUGUCACCUGAGCACAUGGUCUACUGCUGGAAUUCUCGGGUGCCAA`: “RBNS enrichment (R)” 0.458.
`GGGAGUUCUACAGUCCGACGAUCGCACCAUGCCAACCAGCCCUGCGCGAAGACAGAGUGAGCCACGCCCGGAUGGCAGGGCAUGUUUCUGUUUUGGUGUCUCACUUUCCUCCCAGCGUGACUUAUUUGGGGAUUGGAAUUCUCGGGUGCCAA` — result for “RBNS enrichment (R)”: 1.82.
`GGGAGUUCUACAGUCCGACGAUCGGGAGUCUCUCUUAGCCCUUUCAGGAAUUUCUGUUCAGGCUUCCUCCUCCUCAUCAGCUAUUUUACCCAUCUCAGAACGUCCUGUGUCUCCAUGUAGGAGAGUGGCUCUCUGGAAUUCUCGGGUGCCAA`: “RBNS enrichment (R)” 0.938.
`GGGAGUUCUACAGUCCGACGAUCAUGUGGAAGUCAGUACGAUCAAGUUGUUGACUGUGAUUAGAUCACAUCUUAAAUUCAUUUCUAGACUCAAAACCUGGAGAUGCAGCUACUGGAAUGGUGUUUUGUCAGACUGGAAUUCUCGGGUGCCAA` — result for “RBNS enrichment (R)”: 0.314.
`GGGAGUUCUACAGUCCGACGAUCAAAAGAGUGCUAUGAUGUUCUUAGCAUUUGCUAUCAUGCCUAUUUUUAUCUAGAUUUUUAAAUGUAGCUUGUCAUAACAAAAUUUUAAUUACAAUUGGCUUGUAUGAGAAUGGAAUUCUCGGGUGCCAA` — result for “RBNS enrichment (R)”: 4.52.
`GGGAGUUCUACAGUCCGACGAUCUUUGGGGAAAACAUUGCUUUUGGUCCCCCUCCCCAAUAUGCACACCUGCCUUUGCCACUACAUAGGCUGCCUCUGGGCUGUUGGAAGCUCUUCAGUGAGCCUAAGUCUUGUGGAAUUCUCGGGUGCCAA`: “RBNS enrichment (R)” 0.531.
For `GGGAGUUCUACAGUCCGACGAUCUUGAUAUAUAGCAGGUAACAUUGAAGCUAUUCCAUAGCACUUAACUGUAGUGAAUACUGUGUCACCAAUUUUGAAAUCAAUUUAAUGUUUAAUGCAAAUCCAUUACAUGGUGGAAUUCUCGGGUGCCAA`, “RBNS enrichment (R)” read 0.566.
Under “RBNS enrichment (R)”, `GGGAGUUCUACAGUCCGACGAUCAGGGUAAGAAGAACAUGUAGAAUCCAGAUUCCCUGAGUGUGAGGGACCCAUGGUGCAUUUGUAAUAAUAAAACCAAAGAAACAAACACCUGUGUGCUAGCUGCGUGCUGGUGGAAUUCUCGGGUGCCAA` is recorded as 0.727.
`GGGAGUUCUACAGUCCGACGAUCAAGGGAAAUGCAGUUUUUUAAUAGGCUUAUCCAGGAAAUGUUACAGUCUCUUUAACGACAGCUAUAGAUGCUGGAUGUGUUCCGAUGACUUAGGUCAUGUCACAUUGUUGUGGAAUUCUCGGGUGCCAA` — result for “RBNS enrichment (R)”: 0.286.
For `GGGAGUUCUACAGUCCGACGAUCCUUUCGCCUUCCCUGGGGGAGAAACCCUCUUGGCUGAUGGCUUUUCCCCGGAAUUAUCAAACAGCCACCGGGUGACUUUCUGGCUUCCAGAUCCAUCUGCCUGAGACCCCUGGAAUUCUCGGGUGCCAA`, “RBNS enrichment (R)” read 0.233.
`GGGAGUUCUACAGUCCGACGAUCGCCCAGCAGAGGCACCCCUCAUGAAGGAAGCCAUUGCACUGUGAAUACUGAACCUGCCUGCUGAACAGCCUGUCCCAUCCAUCCCUAUGAGUGACCAUCCGUCCGAAUGUUGGAAUUCUCGGGUGCCAA` — result for “RBNS enrichment (R)”: 1.42.

Series 3 — target: CCNA1, cyclin fold, Cln2 fusion (human); method: yeast growth competition, sequencing; matrix: yeast; notes: weak parent motif; reference: not given; direction: higher = stronger binding
Starting sequence: WEE1 docking peptide (human); HKTFRKLRLFDTP
`HKTFRNLRLFDTP [K6N]`: “normalised enrichment score” 0.316.
For `HKTQRKLRLFDTP [F4Q]`, “normalised enrichment score” read 0.578.
`RKTFRKLRLFDTP [H1R]` — result for “normalised enrichment score”: 0.393.
`HVTFRKLRLFDTP [K2V]` — result for “normalised enrichment score”: 0.189.
`HFTFRKLRLFDTP [K2F]` — result for “normalised enrichment score”: -0.0455.
Under “normalised enrichment score”, `HKTFRLLRLFDTP [K6L]` is recorded as 0.148.
`HKTKRKLRLFDTP [F4K]`: “normalised enrichment score” 0.263.
For `HKTFFKLRLFDTP [R5F]`, “normalised enrichment score” read 0.0623.
`HKTFRKLRLFDTY [P13Y]` — result for “normalised enrichment score”: 0.522.
For `HKTFKKLRFFDTP [R5K L9F]`, “normalised enrichment score” read -0.565.
`HKTFNKLRLFDTP [R5N]` — result for “normalised enrichment score”: -2.75.
`HKTFRKRRLFDTP [L7R]` — result for “normalised enrichment score”: 0.187.
`TKTFRKLRLFDTP [H1T]`: “normalised enrichment score” 0.548.
For `HKTFRKLRLFITP [D11I]`, “normalised enrichment score” read -0.191.
`HKWFRKLRLFDTP [T3W]`: “normalised enrichment score” -0.146.
`HKTLRKLRLFDTP [F4L]`: “normalised enrichment score” -0.178.
Under “normalised enrichment score”, `HKTFRKLRLCDTP [F10C]` is recorded as 0.0934.
For `HKTFRSLRLFDTP [K6S]`, “normalised enrichment score” read 0.154.
For `HKTFRKLRLFKTP [D11K]`, “normalised enrichment score” read 0.606.

Single results of other studies
`PhoQ, residues 284 288 289 292 302 303 AGGCYF` has a fold induction of 10.7 (PhoP, residues 12 14 15 18 19 YHFSH (Escherichia coli, UniProt P23836); Sort-seq, refers to: YFP reporter; E. coli; PhoQ-PhoP variant library, together with: 10 µM Mg2+; reference: high Mg2+ state, higher = stronger signaling).

A few entries again (series 3):
`HKTLRKLRLFDTP [F4L]`: “normalised enrichment score” -0.178.
For `HKTFRSLRLFDTP [K6S]`, “normalised enrichment score” read 0.154.
For `HKTQRKLRLFDTP [F4Q]`, “normalised enrichment score” read 0.578.
For `HKTFKKLRFFDTP [R5K L9F]`, “normalised enrichment score” read -0.565.
Under “normalised enrichment score”, `HKTFRKLRLCDTP [F10C]` is recorded as 0.0934.
For `HKTFRKLRLFITP [D11I]`, “normalised enrichment score” read -0.191.
`HKTFRNLRLFDTP [K6N]`: “normalised enrichment score” 0.316.
